Assay results of several laboratories.
Parts stem from different laboratories: compare values within a part only. Substitutions count along the parent as printed.

Set 1 — technique: protein-binding microarray; molecule type: double-stranded DNA, one strand shown; sample: in vitro; tested at: 250 nM; notes: 60-bp whole probe; added: salmon DNA 0.4 mg/ml; relative to: random background probes; reading: higher = stronger binding; constant ends, left off below: GCCTAGCAC … GTCTTGATTCGCTTGACGCTGCTG
Target: Interferon regulatory factor 7, full length, phosphomimetic (IRF7, Homo sapiens, UniProt Q92985, residues 1-503, S101K/S471D/S472D/S475D/S476D/S477D/S483D/S484D/S487D)
Target sequence (chain): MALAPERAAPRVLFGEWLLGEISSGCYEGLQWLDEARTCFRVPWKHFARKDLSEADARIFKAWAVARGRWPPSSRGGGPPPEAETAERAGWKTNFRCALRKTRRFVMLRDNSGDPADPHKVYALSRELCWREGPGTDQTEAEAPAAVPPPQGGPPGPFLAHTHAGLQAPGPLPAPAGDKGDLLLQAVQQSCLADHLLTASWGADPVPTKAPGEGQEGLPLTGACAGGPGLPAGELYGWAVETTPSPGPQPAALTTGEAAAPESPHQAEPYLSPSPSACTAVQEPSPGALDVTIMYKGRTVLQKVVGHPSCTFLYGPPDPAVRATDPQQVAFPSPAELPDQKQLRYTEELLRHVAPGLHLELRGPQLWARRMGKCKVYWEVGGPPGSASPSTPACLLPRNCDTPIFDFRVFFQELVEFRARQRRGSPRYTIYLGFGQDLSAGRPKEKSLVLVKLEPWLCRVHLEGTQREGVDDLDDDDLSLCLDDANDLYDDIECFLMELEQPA
Strand	log fluorescence [z-score]
GACGGTTTCCTTATACTGACGTGCTAG	2.92
TTAGTTTTCGGTTCCGGTTAGTGCTAG	8.23
GACGGACTGGGGTTCGGGACGTGCTAG	-0.388
GACCATCTCAGTTTCGAGACGTGCTAG	4.12
AATGATTGGTTGAACATGAAGTGCTAG	-0.42
TTAGGTATCGAACTGGGTTAGTGCTAG	0.0353
TCACTTGTGTTTATTGTACTGTGCTAG	0.483
GACCATCTCAGACTGGAGACGTGCTAG	0.118
TTAGATTTCAGGTTCGATTAGTGCTAG	2.54
ACCATTCTCGGGACTCACCTGGTGCTA	0.989
GACGGGTTCGGTTCCGGGACGTGCTAG	2.75
GACGGTATCCGGACTGGGGACGTGCTA	-0.344
GAGGGACTGGACTTTCGGGACGTGCTA	-0.77
GACGGACTGCTTATCGTGACGTGCTAG	-0.25
GACGGTCTCGCTTTCGGGACGTGCTAG	4.21
GACGAACTGGCGTATCGAGACGTGCTA	-0.957
TCCAACCTGCTGAATCAAAAGTGCTAG	-0.216
GACGGTCTCGGATTCGGGACGTGCTAG	2.76
GACGGTCTCCTTTTCCTGAGGTGCTAG	1.28
TTAGGTCTCGGTATCAGTTAGTGCTAG	2.11
GATGGTTTCGGTTTCGGGACGTGCTAG	14.3
TCACTTTTCTGTTGTCTGACTGTGCTA	1.58
TTAGGTTTCGGGTATCGCTTAGTGCTA	7.45
GACGGTCTCCTTCACCTGACGTGCTAG	-0.174

Set 2 — technique: universal PBM; molecule type: double-stranded DNA, one strand shown; sample: in vitro; tested at: 600 nM; reading: higher = stronger binding
Target: Sal-like protein 4, full length isoform A (SALL4, Homo sapiens, UniProt Q9UJQ4, residues 1-1053)
UniProt Q9UJQ4, sequence (whole entry, looked up): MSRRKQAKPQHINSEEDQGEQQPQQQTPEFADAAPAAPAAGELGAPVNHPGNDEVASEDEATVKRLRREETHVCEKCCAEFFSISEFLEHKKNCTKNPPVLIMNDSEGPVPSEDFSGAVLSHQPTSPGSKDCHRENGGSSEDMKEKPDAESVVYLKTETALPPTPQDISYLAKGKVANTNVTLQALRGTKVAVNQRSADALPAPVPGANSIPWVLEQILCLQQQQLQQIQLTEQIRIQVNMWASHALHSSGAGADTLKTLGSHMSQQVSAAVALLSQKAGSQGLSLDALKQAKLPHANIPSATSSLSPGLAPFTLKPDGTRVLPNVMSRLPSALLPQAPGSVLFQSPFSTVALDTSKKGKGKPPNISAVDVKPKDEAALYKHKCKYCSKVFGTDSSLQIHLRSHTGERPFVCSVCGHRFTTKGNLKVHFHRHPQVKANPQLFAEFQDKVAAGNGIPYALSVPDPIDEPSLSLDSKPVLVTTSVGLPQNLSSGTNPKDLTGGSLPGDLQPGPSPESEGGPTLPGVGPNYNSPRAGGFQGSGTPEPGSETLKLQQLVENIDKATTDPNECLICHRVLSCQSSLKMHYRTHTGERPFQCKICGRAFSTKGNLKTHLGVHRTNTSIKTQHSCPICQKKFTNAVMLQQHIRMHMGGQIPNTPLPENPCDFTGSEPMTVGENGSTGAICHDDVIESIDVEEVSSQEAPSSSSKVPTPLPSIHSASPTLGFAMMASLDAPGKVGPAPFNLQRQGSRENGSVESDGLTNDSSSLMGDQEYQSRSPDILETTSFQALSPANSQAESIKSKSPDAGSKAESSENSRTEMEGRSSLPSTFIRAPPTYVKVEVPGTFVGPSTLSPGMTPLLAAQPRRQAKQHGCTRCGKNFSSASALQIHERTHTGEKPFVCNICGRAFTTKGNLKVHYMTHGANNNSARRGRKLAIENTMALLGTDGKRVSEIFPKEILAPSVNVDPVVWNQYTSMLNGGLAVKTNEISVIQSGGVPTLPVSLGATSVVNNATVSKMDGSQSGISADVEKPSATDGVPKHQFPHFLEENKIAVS
Notes: 8-mer, flanks averaged, mean of replicates
Strand	E-score
CAGCTGCG	-0.317
ACAACGGT	-0.13
ATTCTCCG	-0.14
CTCAGGGC	-0.177
AGTTCTCC	-0.247
AGCAAATG	0.0575
CTCGTGTC	-0.168
CCCGGTAC	-0.353
CCTCACCA	-0.155
GCATTTCC	0.052
AAGGACGC	-0.16
GTTACCGA	-0.145
ACCAGCGT	-0.133
TGGCAGAA	-0.0749
ACCTAAGC	-0.122
GCACAAGC	-0.0457
GATCTGGA	-0.021
GGCTGACC	-0.242
CTACCGCA	-0.00628
CCCGAGGA	-0.328
AGGTGTCC	-0.225
ACTTGTTC	0.0711
CCCGGCGA	-0.399
AATGCATT	0.308
CCTGGTAC	-0.177

Set 3 — technique: Sort-seq; measured: YFP reporter; sample: E. coli; notes: PhoQ-PhoP variant library; added: 10 µM Mg2+; relative to: high Mg2+ state; reading: higher = stronger signaling
Substance: PhoQ, residues 284 288 289 292 302 303 TNSAEL
target	fold induction
PhoP, residues 12 14 15 18 19 NFFVT (Escherichia coli, UniProt P23836)	11.7
PhoP, residues 12 14 15 18 19 LHHYF (Escherichia coli, UniProt P23836)	23.5
PhoP, residues 12 14 15 18 19 TPWTL (Escherichia coli, UniProt P23836)	0.799
PhoP, residues 12 14 15 18 19 VGHWL (Escherichia coli, UniProt P23836)	2.13

Set 4 — technique: DHFR PCA, deep sequencing; sample: yeast; added: (+)-ABA 58 µM; relative to: wild-type fitted maximum; reading: higher = stronger binding
Target: ABI1, truncated, D143A, DHFR fusion (Arabidopsis thaliana)
Notes: methotrexate growth selection, single substitutions
Starting sequence: PYL1, truncated, DHFR fusion (Arabidopsis thaliana); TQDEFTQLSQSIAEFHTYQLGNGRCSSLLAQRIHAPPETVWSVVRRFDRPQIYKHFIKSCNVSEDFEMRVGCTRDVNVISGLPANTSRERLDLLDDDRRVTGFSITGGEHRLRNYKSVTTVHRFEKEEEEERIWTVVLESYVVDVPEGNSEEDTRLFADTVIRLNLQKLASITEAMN
Substitution	relative binding score [%]
Q19C	83.9
V40L	-2.5
A35Q	28.7
L28P	14.5
D75A	78.6
H122N	47.8
L29R	65.1
T106Y	88.6
Q31L	18.2
Y115T	0.914
S26W	73.8

A few entries again (set 1):
Strand	log fluorescence [z-score]
GACGGTCTCGGATTCGGGACGTGCTAG	2.76
GACGAACTGGCGTATCGAGACGTGCTA	-0.957
GACGGTCTCGCTTTCGGGACGTGCTAG	4.21
